Results collected from several papers.
Every numbered part comes from another study and shows a few of its results, in no order. “And” joins repeats or separate records; there may be more than shown.
Sequence of UniProt Q99558 (whole entry, looked up): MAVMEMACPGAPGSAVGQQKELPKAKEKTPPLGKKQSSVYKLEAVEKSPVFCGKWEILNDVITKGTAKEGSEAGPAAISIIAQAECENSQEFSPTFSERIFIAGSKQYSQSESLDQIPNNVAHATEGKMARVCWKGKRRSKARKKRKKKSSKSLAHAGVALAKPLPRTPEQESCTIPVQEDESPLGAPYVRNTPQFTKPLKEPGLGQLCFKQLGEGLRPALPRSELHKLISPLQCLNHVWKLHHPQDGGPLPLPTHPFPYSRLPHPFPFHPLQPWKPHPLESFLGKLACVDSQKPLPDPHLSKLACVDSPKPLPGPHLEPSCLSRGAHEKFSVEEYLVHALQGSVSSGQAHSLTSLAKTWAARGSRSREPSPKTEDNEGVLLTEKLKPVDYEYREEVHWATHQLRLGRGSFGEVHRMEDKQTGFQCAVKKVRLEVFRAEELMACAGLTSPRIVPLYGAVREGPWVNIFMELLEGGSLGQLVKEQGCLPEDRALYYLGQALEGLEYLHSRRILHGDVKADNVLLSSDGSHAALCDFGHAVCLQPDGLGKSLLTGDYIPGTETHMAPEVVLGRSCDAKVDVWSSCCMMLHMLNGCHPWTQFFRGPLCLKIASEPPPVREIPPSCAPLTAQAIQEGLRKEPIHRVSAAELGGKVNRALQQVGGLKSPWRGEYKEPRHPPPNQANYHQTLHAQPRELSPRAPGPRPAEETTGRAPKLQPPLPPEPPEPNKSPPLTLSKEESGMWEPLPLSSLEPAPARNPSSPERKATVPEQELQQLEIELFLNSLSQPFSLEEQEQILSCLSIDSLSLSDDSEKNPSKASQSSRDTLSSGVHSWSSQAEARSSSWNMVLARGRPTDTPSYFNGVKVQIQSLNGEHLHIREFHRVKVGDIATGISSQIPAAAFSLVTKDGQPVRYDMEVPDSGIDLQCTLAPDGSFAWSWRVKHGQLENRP
Sequence of UniProt P06493 (whole entry, looked up): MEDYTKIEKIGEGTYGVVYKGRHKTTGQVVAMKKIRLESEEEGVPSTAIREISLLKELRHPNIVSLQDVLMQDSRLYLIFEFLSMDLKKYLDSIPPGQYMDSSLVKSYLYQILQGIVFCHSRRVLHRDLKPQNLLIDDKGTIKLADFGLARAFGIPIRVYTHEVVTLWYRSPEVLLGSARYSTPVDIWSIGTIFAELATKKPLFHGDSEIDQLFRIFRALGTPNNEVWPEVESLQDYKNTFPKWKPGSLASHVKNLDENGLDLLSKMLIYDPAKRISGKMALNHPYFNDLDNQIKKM
Sequence of UniProt Q16566 (whole entry, looked up): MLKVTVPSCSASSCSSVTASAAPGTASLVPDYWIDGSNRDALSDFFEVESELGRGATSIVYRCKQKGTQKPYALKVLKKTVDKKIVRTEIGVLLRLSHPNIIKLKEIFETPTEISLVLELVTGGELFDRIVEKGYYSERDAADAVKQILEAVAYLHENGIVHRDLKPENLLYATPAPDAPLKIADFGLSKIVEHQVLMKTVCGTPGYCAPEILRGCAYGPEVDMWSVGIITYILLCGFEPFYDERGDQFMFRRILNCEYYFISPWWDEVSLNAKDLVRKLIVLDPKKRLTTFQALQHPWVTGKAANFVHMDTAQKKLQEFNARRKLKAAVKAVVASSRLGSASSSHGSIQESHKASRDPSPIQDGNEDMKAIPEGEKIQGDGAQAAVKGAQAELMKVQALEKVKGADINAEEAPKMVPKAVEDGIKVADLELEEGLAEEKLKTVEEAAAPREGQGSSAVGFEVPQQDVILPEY
Sequence of UniProt Q16832 (whole entry, looked up): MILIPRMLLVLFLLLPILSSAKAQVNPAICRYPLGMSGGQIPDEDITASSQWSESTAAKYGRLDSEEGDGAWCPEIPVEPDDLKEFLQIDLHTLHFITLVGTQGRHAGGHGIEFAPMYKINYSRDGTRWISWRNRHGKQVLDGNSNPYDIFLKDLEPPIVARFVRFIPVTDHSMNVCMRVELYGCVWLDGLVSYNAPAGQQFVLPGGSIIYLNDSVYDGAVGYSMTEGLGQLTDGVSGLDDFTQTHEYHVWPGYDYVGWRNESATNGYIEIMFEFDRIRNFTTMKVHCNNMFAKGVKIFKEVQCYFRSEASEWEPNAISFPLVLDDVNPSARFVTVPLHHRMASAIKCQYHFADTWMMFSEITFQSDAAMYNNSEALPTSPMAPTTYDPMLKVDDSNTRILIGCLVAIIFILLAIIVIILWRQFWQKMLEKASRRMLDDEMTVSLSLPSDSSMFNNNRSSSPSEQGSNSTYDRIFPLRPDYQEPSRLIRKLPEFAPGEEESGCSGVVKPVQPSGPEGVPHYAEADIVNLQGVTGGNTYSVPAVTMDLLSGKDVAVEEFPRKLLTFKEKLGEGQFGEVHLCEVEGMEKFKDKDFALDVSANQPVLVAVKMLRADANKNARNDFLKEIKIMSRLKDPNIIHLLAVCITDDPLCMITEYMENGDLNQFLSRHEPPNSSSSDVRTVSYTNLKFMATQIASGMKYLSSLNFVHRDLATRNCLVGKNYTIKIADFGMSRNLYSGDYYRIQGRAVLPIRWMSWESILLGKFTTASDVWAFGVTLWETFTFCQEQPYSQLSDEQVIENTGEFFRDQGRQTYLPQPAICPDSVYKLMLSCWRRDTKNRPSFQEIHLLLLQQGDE
Sequence of UniProt O75914 (whole entry, looked up): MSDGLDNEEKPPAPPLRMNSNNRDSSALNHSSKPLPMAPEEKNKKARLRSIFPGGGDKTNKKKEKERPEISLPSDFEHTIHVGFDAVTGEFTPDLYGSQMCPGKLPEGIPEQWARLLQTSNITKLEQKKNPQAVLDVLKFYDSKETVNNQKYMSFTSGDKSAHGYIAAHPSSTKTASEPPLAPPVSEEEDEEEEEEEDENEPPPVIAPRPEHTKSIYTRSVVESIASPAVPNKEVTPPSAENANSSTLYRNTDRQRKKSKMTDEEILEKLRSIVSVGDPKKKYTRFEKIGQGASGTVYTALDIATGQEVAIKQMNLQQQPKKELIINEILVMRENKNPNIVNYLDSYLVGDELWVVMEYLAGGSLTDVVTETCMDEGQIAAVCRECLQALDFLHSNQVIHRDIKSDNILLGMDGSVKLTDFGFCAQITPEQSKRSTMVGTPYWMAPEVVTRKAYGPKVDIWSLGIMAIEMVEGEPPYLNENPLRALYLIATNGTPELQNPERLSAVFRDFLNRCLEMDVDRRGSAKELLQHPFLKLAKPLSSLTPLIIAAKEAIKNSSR
Sequence of UniProt Q8N4C8 (whole entry, looked up): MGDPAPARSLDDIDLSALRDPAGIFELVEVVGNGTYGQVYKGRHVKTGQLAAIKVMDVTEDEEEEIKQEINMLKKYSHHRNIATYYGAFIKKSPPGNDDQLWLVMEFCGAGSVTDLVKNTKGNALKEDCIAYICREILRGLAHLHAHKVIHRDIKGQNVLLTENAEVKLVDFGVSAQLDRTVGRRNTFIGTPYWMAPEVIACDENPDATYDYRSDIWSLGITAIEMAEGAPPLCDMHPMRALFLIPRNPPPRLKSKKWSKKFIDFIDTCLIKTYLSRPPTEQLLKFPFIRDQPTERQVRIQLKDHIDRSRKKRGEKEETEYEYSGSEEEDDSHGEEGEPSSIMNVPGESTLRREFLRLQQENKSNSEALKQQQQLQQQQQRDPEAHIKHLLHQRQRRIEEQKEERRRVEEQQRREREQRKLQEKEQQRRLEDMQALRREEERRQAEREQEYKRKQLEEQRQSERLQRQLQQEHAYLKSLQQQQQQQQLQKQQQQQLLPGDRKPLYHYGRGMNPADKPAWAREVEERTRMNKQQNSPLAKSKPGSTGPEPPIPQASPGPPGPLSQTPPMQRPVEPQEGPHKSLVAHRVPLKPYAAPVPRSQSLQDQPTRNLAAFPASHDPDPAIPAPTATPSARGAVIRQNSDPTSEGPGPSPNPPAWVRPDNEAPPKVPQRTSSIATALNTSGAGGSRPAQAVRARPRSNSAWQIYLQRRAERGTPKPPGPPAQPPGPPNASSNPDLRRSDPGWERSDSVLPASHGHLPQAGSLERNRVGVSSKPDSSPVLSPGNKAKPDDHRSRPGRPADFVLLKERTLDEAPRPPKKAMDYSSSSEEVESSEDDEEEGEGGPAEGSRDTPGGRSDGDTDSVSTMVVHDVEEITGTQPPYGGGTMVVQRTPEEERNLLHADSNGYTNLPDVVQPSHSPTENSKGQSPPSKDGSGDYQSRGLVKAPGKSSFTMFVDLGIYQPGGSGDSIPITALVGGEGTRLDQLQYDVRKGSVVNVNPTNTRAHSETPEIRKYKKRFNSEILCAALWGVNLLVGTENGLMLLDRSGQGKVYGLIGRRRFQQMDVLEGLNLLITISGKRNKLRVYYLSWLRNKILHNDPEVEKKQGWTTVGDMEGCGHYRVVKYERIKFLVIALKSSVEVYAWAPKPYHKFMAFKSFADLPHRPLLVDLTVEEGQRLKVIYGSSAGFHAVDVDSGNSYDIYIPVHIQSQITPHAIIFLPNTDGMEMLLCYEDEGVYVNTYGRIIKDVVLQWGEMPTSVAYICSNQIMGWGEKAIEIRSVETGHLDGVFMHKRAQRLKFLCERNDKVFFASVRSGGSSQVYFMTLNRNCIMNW
Sequence of UniProt P28221 (whole entry, looked up): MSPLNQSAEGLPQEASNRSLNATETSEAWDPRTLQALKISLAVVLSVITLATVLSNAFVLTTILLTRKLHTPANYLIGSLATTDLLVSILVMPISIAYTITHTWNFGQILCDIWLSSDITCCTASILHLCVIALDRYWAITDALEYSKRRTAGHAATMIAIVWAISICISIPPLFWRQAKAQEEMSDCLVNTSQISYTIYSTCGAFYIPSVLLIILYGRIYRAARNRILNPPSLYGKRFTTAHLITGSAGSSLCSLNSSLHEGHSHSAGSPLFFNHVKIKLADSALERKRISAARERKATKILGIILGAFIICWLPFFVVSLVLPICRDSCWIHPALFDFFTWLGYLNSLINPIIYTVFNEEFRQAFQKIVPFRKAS

Block 1
Cell line: mouse MPNST tumor cells
Method: high-content nuclear imaging
Refers to: cell number
Tested at: 10 µM
Time: 12 h
Notes: mean of 2 replicates
Baseline: plate mean
Reading: higher = more cells
| SMILES | nuclei count |
| --- | --- |
| N[C@@H](Cn1ccc(=O)n(Cc2ccccc2C(=O)O)c1=O)C(=O)O | -0.09 z-score |
| NC(=O)c1nc(Nc2ccccc2)sc1NC(=O)C1CCCCC1 | 2.18 z-score |
| COc1cc(C)c(/C=C/C(C)=C/C=C/C(C)=C/C(=O)O)c(C)c1C | 0.103 z-score |
| CCCCCOC(=O)Nc1nc(=O)n([C@@H]2O[C@H](C)[C@@H](O)[C@H]2O)cc1F | 2.11 z-score and 0.142 z-score |
| CC(C)(C)c1cc(C(=O)C=Cc2ccc(C(=O)O)cc2)cc(C(C)(C)C)c1 | -3.29 z-score |

Block 2
SMILES: O=C1NC(=O)/C(=C/c2ccc3nccnc3c2)S1
Read-out: enzyme activity
Mode: inhibitor
Tested at: 0.5 µM
Baseline: control
| target | remaining activity |
| --- | --- |
| DDR2 (Homo sapiens, UniProt Q16832) | 93.4% |
| ROCK1 (Homo sapiens, UniProt Q13464) | 94% |
| MAPK11 (Homo sapiens, UniProt Q15759) | 99.2% |
| PLK3 (Homo sapiens, UniProt Q9H4B4) | 97.7% |
| TLK2 (Homo sapiens, UniProt Q86UE8) | 95.2% |
| CDC42BPB (Homo sapiens, UniProt Q9Y5S2) | 91.3% |
| KDR (Homo sapiens, UniProt P35968) | 92.6% |
| CLK3 (Homo sapiens, UniProt P49761) | 80.8% |
| CAMK4 (Homo sapiens, UniProt Q16566) | 106% |
| Cyclin-dependent kinase 1, with cyclin A (CDK1, Homo sapiens, UniProt P06493) | 90.7% |
| MET (Homo sapiens, UniProt P08581) | 91.2% |
| PAK3 (Homo sapiens, UniProt O75914) | 97.4% |
| MAP2K1 (Homo sapiens, UniProt Q02750) | 89.5% |
| PRKG2 (Homo sapiens, UniProt Q13237) | 106% |
| MINK1 (Homo sapiens, UniProt Q8N4C8) | 88.3% |

Block 3
Cell line: HaCaT
Tested at: 100 µM
Time: 60 h
| SMILES | viability [%] |
| --- | --- |
| COc1ccc([C@@H]2CC(=O)c3c(O)cc(O[C@@H]4O[C@H](CO[C@@H]5O[C@@H](C)[C@H](O)[C@@H](O)[C@H]5O)[C@@H](O)[C@H](O)[C@H]4O)cc3O2)cc1OC | 151 |
| C[C@H](O)C(=O)Nc1c(I)c(C(=O)NC(CO)CO)c(I)c(C(=O)NC(CO)CO)c1I | 150 |
| O=C(O)CCc1nc(-c2ccccc2)c(-c2ccccc2)o1 | 112 |
| COc1ccc(-c2cc(=O)c3c(O)cc(O[C@@H]4O[C@H](CO[C@@H]5O[C@@H](C)[C@H](O)[C@@H](O)[C@H]5O)[C@@H](O)[C@H](O)[C@H]4O)cc3o2)cc1O | 56.5 |
| N[C@@H](Cc1ccc(O)c(O)c1)C(=O)O | 71.3 |
| CC(=O)N[C@H]1[C@H]([C@H](O)[C@H](O)CO)OC(C(=O)O)=C[C@@H]1N=C(N)N | 142 |

Block 4
SMILES: COc1ccc2[nH]c3c4[nH]c5ccc(OC)cc5c4c4c(c3c2c1)C(=O)NC4=O
Tested at: 1 µM
| target | method | refers to | notes | baseline | remaining binding [%] |
| --- | --- | --- | --- | --- | --- |
| JAK3 (Homo sapiens, UniProt P52333) | competitive binding panel |  | JH1 catalytic domain | vehicle | 47 |
| CLK4 (Homo sapiens, UniProt Q9HAZ1) | competitive binding panel |  |  | vehicle | 57 |
| MAP3K14 (Homo sapiens, UniProt Q99558) | competitive binding |  | NIK |  | 20 |
| ABL1 (Homo sapiens, UniProt P00519, F317L) | competitive binding scan |  |  |  | 75 |
| PRKCE (Homo sapiens, UniProt Q02156) | competitive binding panel |  |  | vehicle | 75 |
| MAP3K19 (Homo sapiens, UniProt Q56UN5) | competitive binding panel | YSK4 |  | vehicle | 0 |
| MAP3K12 (Homo sapiens, UniProt Q12852) | competitive binding |  | DLK |  | 77 |

Mixed results
| SMILES | target | read-out | method | tested at | quantity | result |
| --- | --- | --- | --- | --- | --- | --- |
| Nc1c(C(=O)NCc2ccc(C(=O)NCCCC3CCCCC3)cc2)cnn1-c1ccccc1 | 5-hydroxytryptamine receptor 1D (HTR1D, Homo sapiens, UniProt P28221) | binding | radioligand binding | 10 µM | inhibition | 27.6% |

For quick reference, copied from above (block 2):
| target | remaining activity |
| --- | --- |
| MINK1 (Homo sapiens, UniProt Q8N4C8) | 88.3% |
| PAK3 (Homo sapiens, UniProt O75914) | 97.4% |
| KDR (Homo sapiens, UniProt P35968) | 92.6% |
| TLK2 (Homo sapiens, UniProt Q86UE8) | 95.2% |
